Assay results from different studies.
Each numbered part is a random draw from the data of one study; scales do not carry over between parts. “And” joins repeats or separate records; there may be more than shown.
Chain of UniProt P53779 (whole entry, looked up): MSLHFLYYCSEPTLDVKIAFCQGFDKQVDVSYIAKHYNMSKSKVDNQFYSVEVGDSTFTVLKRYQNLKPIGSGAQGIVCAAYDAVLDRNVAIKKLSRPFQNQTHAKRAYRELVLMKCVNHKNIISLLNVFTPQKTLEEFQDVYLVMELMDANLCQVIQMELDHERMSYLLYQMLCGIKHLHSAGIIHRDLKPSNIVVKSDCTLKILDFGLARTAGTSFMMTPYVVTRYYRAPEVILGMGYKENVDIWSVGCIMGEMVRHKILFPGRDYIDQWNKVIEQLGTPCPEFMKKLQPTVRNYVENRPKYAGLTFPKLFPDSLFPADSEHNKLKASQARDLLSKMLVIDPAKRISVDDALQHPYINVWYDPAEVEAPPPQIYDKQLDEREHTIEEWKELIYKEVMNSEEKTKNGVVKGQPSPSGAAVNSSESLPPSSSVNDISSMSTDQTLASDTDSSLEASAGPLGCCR
Chain of UniProt P29597 (whole entry, looked up): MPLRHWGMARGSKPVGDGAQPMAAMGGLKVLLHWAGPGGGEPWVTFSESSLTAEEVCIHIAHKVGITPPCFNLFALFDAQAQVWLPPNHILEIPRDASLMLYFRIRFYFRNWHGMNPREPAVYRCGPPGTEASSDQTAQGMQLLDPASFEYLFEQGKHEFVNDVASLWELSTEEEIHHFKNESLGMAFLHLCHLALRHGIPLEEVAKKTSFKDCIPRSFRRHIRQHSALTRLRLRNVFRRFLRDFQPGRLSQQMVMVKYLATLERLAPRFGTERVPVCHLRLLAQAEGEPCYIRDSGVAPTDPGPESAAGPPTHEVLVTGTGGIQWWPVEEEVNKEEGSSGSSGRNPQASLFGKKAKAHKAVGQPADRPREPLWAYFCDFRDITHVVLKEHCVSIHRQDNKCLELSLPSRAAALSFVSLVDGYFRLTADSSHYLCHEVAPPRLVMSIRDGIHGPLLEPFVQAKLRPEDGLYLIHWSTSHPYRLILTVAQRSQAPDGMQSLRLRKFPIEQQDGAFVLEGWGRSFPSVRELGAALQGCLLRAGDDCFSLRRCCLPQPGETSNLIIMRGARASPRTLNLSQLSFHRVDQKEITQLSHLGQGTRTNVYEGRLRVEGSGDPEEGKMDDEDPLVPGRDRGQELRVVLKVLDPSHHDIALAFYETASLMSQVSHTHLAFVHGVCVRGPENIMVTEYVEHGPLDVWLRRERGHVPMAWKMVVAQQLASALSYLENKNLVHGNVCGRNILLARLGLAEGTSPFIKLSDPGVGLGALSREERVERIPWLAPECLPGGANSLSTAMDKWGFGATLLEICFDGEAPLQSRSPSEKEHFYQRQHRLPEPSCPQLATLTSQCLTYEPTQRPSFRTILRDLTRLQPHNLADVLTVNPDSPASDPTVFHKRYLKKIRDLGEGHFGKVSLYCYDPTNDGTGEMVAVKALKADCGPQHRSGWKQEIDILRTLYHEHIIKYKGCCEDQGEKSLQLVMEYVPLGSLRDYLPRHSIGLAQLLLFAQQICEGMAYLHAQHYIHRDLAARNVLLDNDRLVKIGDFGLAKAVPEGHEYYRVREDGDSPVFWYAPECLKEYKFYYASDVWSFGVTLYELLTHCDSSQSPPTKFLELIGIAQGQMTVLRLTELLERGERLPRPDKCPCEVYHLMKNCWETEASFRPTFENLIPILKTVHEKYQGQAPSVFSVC
Chain of UniProt O95747 (whole entry, looked up): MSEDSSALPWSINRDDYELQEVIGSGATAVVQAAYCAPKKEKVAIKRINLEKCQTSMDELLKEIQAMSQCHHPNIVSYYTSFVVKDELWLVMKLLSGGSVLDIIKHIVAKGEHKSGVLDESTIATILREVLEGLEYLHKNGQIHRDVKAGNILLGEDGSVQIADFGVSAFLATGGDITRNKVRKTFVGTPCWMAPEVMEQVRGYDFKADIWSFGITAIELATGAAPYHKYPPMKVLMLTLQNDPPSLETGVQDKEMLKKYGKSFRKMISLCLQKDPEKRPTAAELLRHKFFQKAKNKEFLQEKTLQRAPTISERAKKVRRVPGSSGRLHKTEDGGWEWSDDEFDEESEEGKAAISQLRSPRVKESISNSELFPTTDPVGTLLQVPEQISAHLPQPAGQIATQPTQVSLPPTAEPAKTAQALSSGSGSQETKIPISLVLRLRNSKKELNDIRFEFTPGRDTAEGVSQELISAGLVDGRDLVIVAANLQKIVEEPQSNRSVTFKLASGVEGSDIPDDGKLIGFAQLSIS
Chain of UniProt Q16816 (whole entry, looked up): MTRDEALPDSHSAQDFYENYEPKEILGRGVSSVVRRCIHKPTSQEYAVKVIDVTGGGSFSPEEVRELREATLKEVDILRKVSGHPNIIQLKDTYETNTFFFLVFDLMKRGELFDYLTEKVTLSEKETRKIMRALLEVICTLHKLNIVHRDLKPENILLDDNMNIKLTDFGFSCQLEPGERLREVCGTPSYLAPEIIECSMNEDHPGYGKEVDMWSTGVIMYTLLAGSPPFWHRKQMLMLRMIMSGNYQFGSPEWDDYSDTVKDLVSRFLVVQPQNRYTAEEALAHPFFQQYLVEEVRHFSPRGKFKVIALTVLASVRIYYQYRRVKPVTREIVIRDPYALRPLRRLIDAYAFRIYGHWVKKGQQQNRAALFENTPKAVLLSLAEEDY
Chain of UniProt P23458 (whole entry, looked up): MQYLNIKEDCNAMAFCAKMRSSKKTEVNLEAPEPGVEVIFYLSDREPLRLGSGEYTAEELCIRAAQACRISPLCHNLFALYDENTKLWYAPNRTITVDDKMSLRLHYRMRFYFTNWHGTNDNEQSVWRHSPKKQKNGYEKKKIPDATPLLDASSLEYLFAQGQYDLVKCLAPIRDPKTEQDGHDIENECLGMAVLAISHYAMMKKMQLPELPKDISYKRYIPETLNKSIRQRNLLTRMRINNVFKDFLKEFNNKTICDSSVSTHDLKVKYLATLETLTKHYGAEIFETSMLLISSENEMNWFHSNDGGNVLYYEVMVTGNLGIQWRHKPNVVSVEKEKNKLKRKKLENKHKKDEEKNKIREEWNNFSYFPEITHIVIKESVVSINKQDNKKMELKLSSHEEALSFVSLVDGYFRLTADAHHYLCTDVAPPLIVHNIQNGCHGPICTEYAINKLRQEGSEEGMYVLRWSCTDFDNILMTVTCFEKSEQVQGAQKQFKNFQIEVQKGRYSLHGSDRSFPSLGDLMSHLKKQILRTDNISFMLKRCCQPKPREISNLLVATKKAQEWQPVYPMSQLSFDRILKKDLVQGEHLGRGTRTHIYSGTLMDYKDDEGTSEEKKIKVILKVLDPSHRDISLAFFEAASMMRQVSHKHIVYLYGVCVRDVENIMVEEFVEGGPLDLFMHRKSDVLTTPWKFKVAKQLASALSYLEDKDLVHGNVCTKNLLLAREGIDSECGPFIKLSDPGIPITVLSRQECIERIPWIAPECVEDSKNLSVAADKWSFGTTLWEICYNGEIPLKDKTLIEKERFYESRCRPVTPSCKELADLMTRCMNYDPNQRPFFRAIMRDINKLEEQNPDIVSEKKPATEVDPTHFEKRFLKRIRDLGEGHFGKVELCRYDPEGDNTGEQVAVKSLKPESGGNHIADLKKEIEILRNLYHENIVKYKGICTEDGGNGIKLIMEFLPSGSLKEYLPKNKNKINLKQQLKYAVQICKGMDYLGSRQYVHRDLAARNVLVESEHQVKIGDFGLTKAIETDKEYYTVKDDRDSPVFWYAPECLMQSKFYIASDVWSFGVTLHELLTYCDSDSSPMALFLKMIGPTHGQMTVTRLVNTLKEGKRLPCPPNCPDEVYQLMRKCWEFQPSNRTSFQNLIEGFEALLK
Chain of UniProt Q9BZL6 (whole entry, looked up): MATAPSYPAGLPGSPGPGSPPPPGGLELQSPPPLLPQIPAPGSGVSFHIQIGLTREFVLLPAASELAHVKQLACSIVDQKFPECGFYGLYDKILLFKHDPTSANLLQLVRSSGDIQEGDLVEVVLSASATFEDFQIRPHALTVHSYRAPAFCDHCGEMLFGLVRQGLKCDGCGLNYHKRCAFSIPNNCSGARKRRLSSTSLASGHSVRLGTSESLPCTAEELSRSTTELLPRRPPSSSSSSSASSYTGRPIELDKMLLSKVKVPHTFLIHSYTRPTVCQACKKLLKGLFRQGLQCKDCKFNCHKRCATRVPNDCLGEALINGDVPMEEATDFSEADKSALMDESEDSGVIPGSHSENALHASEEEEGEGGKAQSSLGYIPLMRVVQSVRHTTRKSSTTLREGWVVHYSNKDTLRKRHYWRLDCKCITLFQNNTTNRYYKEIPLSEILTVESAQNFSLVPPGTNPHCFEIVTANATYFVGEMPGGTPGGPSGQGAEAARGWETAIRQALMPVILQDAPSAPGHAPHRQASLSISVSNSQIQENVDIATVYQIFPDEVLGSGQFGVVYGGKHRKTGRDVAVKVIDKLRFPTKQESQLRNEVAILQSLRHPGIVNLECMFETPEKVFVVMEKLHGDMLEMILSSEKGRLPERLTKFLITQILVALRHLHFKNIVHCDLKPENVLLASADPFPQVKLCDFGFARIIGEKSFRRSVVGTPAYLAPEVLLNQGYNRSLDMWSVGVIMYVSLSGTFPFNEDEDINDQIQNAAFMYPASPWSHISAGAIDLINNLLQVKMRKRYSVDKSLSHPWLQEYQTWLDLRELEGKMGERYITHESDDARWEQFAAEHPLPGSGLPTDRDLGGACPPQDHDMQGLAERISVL
Chain of UniProt P53778 (whole entry, looked up): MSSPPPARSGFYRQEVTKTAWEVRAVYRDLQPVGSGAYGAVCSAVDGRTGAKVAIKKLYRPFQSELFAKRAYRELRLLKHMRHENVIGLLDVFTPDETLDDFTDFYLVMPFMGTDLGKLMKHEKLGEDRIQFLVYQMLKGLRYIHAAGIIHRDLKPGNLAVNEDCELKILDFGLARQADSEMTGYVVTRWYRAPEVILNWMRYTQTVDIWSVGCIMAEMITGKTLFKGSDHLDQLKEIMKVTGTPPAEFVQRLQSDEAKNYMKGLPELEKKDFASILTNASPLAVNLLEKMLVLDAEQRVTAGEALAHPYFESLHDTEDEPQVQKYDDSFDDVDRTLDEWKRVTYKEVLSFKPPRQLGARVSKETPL

Sample 1
Species: mouse
Sample: microsomes or S9
Tested at: 2 µM
Time: 0.5 h
Quantity: remaining compound
Clc1ccc2c(c1)C=C(c1nnc(Cc3ccccc3)o1)C=CO2: 21.8%
CCn1c2nc(C)cc(C)c2c(=O)n2c(C(=O)O)nnc12: 72.1%
COC(=O)c1cc(C)sc1NC(=O)C1CC(=O)NN1C (stereo not drawn): 90.1%
COc1cc(C(=O)N2CCN(C)CC2)c(N(C)S(C)(=O)=O)cc1OC: > 100%
OC1CCOc2c(NCCc3ccccc3F)cccc21 (stereo not drawn): 6%

Sample 2
Structure (SMILES): O=C(Nc1ccc(Oc2ccc(F)cc2)cc1)N1CCc2ncccc2[C@H]1c1ccc(F)cc1
Read-out: cell-free assay
Technique: competition with immobilised ligand
Tested at: 1 µM
Quantity: remaining binding
PIK3CA (Homo sapiens, UniProt P42336): 83%
MAP2K3 (Homo sapiens, UniProt P46734): 88%
EGFR (Homo sapiens, UniProt P00533): 100%
OXSR1 (Homo sapiens, UniProt O95747): 90%
MAPK10 (Homo sapiens, UniProt P53779): 82%
NTRK1 (Homo sapiens, UniProt P04629): 85%
MAP2K5 (Homo sapiens, UniProt Q13163): 81%
TGFBR2 (Homo sapiens, UniProt P37173): 91%
Tyrosine-protein kinase JAK1, JH1 (JAK1, Homo sapiens, UniProt P23458): 94%
MAPK15 (Homo sapiens, UniProt Q8TD08): 94%
PRKD2 (Homo sapiens, UniProt Q9BZL6): 100%
PHKG1 (Homo sapiens, UniProt Q16816): 100%
Non-receptor tyrosine-protein kinase TYK2, JH2 (TYK2, Homo sapiens, UniProt P29597): 100%
MAPK12 (Homo sapiens, UniProt P53778): 94%

Sample 3
SMILES: Cc1nc(Nc2ncc(C(=O)Nc3c(C)cccc3Cl)s2)cc(N2CCN(CCO)CC2)n1
Mode: inhibitor
Tested at: 1 µM
Quantity: inhibition
Insulin receptor (INSR, Homo sapiens, UniProt P06213): < 50%
PTK2 (Homo sapiens, UniProt Q05397): < 50%
PIM1 (Homo sapiens, UniProt P11309): < 50%

Sample 4
Cell line: mouse MPNST tumor cells
Technique: high-content nuclear imaging
Refers to: cell number
Tested at: 10 µM
Time: 12 h
Notes: mean of 2 replicates
Reference: plate mean
Reading: higher = more cells
Quantity: nuclei count
C[C@H](NC(=O)c1sccc1OCc1ccc(Cl)cc1)c1ccccc1: 2.28 z-score
NC12CC3CC(CC(C3)C1)C2: 0.591 z-score and 0.0623 z-score
O=C(Oc1nsnc1N1CCCCC1)N1CCOCC1: 1.64 z-score
CC(C)NCC(O)COc1ccc(CC(N)=O)cc1 (stereo not drawn): 3.21 z-score
Cc1cc([N+](=O)[O-])ccc1NS(=O)(=O)c1cc(Cl)ccc1Cl: 2.33 z-score

Sample 5
Cell line: A-375
Tested at: 100 µM
Time: 36 h
Quantity: viability
C[C@@H]1CC(=O)NN=C1c1ccc(NN=C(C#N)C#N)cc1: 27.2%
CCC(=O)O[C@@H](O[P@](=O)(CCCCc1ccccc1)CC(=O)N1C[C@H](C2CCCCC2)C[C@H]1C(=O)O)C(C)C: 109%
COc1ccc2cc(CCC(C)=O)ccc2c1: 97.7%

A few entries again (sample 3):
Insulin receptor (INSR, Homo sapiens, UniProt P06213): < 50%
PTK2 (Homo sapiens, UniProt Q05397): < 50%
PIM1 (Homo sapiens, UniProt P11309): < 50%
